# Measurements gathered from unrelated publications.
# A part holds a random share of what one study measured. Values joined by “and” are separate records of one study, mostly repeats; a detail may differ.

# Series 1 — method: von Frey test
# SMILES: COc1cc(C(=O)OCCCN2CCCN(CCCOC(=O)c3cc(OC)c(OC)c(OC)c3)CC2)cc(OC)c1OC
effect on,host,route,dose,time,setting,paw withdrawal threshold
,"mouse, CFA inflammatory pain",intravenous,dose not given,3 h post-dose,"first injection, day 1",0.23 g and 0.44 g and 0.29 g and 0.4 g and 0.32 g
,"mouse, CFA inflammatory pain",subcutaneous,10 mg/kg,24 h post-dose,"third injection, day 5",0.23 g and 0.19 g and 0.11 g and 0.29 g
mechanical pain,"mouse, STZ diabetic neuropathy",intravenous,30 mg/kg,3 h post-dose,third injection,0.23 g and 0.13 g and 0.27 g and 0.33 g and 0.11 g
mechanical pain,"mouse, STZ diabetic neuropathy",intravenous,30 mg/kg,1 h post-dose,third injection,0.23 g and 0.03 g and 0.12 g and 0.29 g and 0.27 g
mechanical pain,"mouse, STZ diabetic neuropathy",intravenous,30 mg/kg,1 h post-dose,"first injection, day 8",0.51 g and 0.29 g and 0.32 g and 0.05 g and 0.1 g
,"mouse, CFA inflammatory pain",intravenous,dose not given,baseline before CFA,,1.56 g and 0.98 g and 1.3 g and 0.65 g and 0.75 g

# Series 2 — cell line: mouse MPNST tumor cells; method: high-content immunofluorescence imaging; measured: nuclear SOX9; concentration: 10 µM; time: 12 h; setting: mean of 2 replicates; relative to: DMSO control; direction: higher = more nuclear SOX9
Structure (SMILES),nuclear SOX9 intensity
O=C(Nc1ccc(Oc2ccc(Cl)cn2)c(Cl)c1)c1ccccn1,119 % of DMSO
Cn1c(=O)c2cc(C(=O)NCCCN3CCCCCC3)sc2c2ccccc21,197 % of DMSO
CCCCC(=O)O[C@H]1CC[C@H]2[C@@H]3CCc4cc(O)ccc4[C@H]3CC[C@]12C,98.2 % of DMSO
O=C(c1cn(Cc2cncn2Cc2ccc(Br)cc2)cc1-c1cccc2ccccc12)N1CCOCC1,60.8 % of DMSO
Cn1c(NC[C@@H](N)Cc2ccccc2)nc(-c2ccncc2)c(-c2ccc3ccccc3c2)c1=O,178 % of DMSO
CC(NCCc1ccc(O)cc1)C(O)c1ccc(O)cc1 (stereo not shown),107 % of DMSO
Cc1ccc([N+](=O)[O-])cc1S(=O)(=O)N(C)C,94.7 % of DMSO
O=C(Nc1ncc([N+](=O)[O-])s1)c1ccccc1O,97.8 % of DMSO
NC(=O)c1ccc(-c2nc(-c3ccc4c(c3)OCCO4)c(-c3ccccn3)[nH]2)cc1,86.2 % of DMSO

# Series 3 — effect on: enzyme activity; action: inhibitor; concentration: 0.5 µM; relative to: control
# Target: Activin receptor type-1-like (ACVRL1, Homo sapiens, UniProt P37023)
# Sequence of UniProt P37023 (whole entry, looked up): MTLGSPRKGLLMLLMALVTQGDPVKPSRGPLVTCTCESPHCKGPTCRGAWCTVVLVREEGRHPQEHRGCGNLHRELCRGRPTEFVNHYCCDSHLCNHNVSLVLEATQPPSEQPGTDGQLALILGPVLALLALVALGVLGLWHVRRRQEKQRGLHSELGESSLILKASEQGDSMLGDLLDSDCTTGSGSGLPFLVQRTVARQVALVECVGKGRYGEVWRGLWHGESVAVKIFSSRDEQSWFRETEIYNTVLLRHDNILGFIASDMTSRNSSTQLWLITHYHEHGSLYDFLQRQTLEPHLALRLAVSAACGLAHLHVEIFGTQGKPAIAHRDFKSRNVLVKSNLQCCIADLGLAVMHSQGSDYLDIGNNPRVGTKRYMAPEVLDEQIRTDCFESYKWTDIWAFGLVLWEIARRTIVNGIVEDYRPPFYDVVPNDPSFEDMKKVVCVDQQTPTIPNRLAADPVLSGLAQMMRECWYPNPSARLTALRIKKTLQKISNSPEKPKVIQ
SMILES,remaining activity
CNc1cc2c(Nc3cccc(Br)c3)ncnc2cn1,90.6%
Nc1nc(Nc2ccc(S(N)(=O)=O)cc2)nn1C(=S)Nc1c(F)cccc1F,15.1%
CC(C)n1cnc2c(Nc3cccc(Cl)c3)nc(NCCO)nc21,103%
O=C1NC(=O)/C(=C/c2ccc3c(c2)OC(F)(F)O3)S1,97.1%
O=C(c1ccccc1)c1ccc(N2CCOCC2)cc1O,105%
O=C1c2ccccc2-c2nc3nnnn3nc21,105%
CCCCc1c(-c2ccc(O)cc2)[nH]c2nccnc12,76.2%
COc1cc2c(Nc3ccc(Br)cc3F)ncnc2cc1OCC1CCN(C)CC1,104%
N#C/C(=C(/N)SC1C=CC=CC1)c1cccc(C(O)c2ccncc2)c1 (stereo not shown),98.7%
O=C(O)/C=C/c1cc(Br)c(Br)c(Br)c1Br,103%

# Series 4 — concentration: 1 µM; relative to: DMSO
# Compound: CN(C)C(=O)Cn1cc(-c2ccc(-c3nnc4ccccn34)cc2)cn1
cell line,setting,viability [%]
colorectal tumour organoids,,113
sample B colorectal tumour organoid,replicate 1,114
sample B colorectal tumour organoid,replicate 2,106
sample BA colorectal tumour organoid,,151
sample C colorectal tumour organoid,replicate 2,110
sample C colorectal tumour organoid,replicate 1,89.9

# Excerpt of the above (series 2):
Structure (SMILES),nuclear SOX9 intensity
O=C(c1cn(Cc2cncn2Cc2ccc(Br)cc2)cc1-c1cccc2ccccc12)N1CCOCC1,60.8 % of DMSO
Cn1c(NC[C@@H](N)Cc2ccccc2)nc(-c2ccncc2)c(-c2ccc3ccccc3c2)c1=O,178 % of DMSO
CC(NCCc1ccc(O)cc1)C(O)c1ccc(O)cc1 (stereo not shown),107 % of DMSO
